Results from different studies.
Protocols differ between the studies behind these lines. Values joined by “and” are separate records of one study, mostly repeats; a detail may differ. ± marks the error that the study gave. Converted amounts (≈) assume the structure as drawn. Bridges are numbered along the chain shown (N, C = ends). Where no end group is shown, it is not given here.

Molecule	tested on	assay	test system	setting	scale	endpoint	value
N=C(N)c1ccc(-c2ccc(-c3ccco3)o2)c(F)c1	Salmonella enterica		TA1535	20 µM, 48 h, together with: sodium azide co-exposure	reference: sodium azide alone	mutant frequency	29%
[123I]c1cncc(OC[C@@H]2CCN2)c1		SPECT	human, cerebellum	intravenous bolus plus infusion, 7.7 mCi	reference: tissue over plasma	tissue/plasma ratio	26.9
COc1ccc(OCC2c3cccn3CC(=O)N2Cc2cccc(F)c2)cc1 (stereo not drawn)			C57BL/6 mouse male, brain	intraperitoneal, 10 mg/kg		Cmax	962 ± 210 ng/mL
N#Cc1ccc(-c2ccc(-c3cccs3)o2)cc1F	Salmonella enterica		TA1535	10 µM, 48 h, together with: sodium azide after pre-exposure	reference: sodium azide alone	mutant frequency	26%
CC(C)C[C@H](NC(=O)[C@H](CCC(=O)O)NC(=O)[C@H](CCC(=O)O)NC(=O)[C@H](CC(=O)O)NC(=O)[C@H](CCC(=O)O)NC(=O)[C@H](CCC(=O)O)NC(=O)[C@H](CCC(=O)O)NC(=O)[C@@H](N)CC(=O)O)C(=O)O			rat, plasma	subcutaneous, 11.0 mg/kg single dose, 165 min		plasma concentration	989 ng/mL
CC(=O)[O][Pt]([NH2])([Cl])([Cl])([NH]C1CCCCC1)[O]C(C)=O		atomic absorption spectroscopy, item: platinum	rhesus monkey, plasma ultrafiltrate	intravenous infusion over 1 h, 6 mg/kg		AUC(0-inf)	32.1 µM·h and 35.1 µM·h and 38.2 µM·h
CC(C)c1ccc2c(c1)CC[C@H]1[C@](C)(CN)CCC[C@]21C	SBcl2	cell growth or viability, MTS		48 h		IC50	4.68 µM
NC(=O)c1nc(F)c[nH]c1=O		UV-Vis spectrophotometry	supercritical CO2	120 min, 308 K, 27 MPa, 913.69 kg/m^3		solubility	1340 µg/mL (≈ 8.5 mM)
Cc1ccc(C(=O)Nc2ccc(S(=O)(=O)O)c3cc(S(=O)(=O)O)cc(S(=O)(=O)O)c23)cc1NC(=O)c1cccc(NC(=O)Nc2cccc(C(=O)Nc3cc(C(=O)Nc4ccc(S(=O)(=O)O)c5cc(S(=O)(=O)O)cc(S(=O)(=O)O)c45)ccc3C)c2)c1			zebrafish embryos	immersion, 72 h		maximum tolerated concentration	200 µM
CSCC[C@@H]1NC(=O)[C@H](CC(=O)O)NC(=O)CNC(=O)[C@H](CCCNC(=N)N)NC(=O)[C@H](C)NC(=O)[C@H](CCC(=O)O)NC(=O)[C@H](CCCNC(=N)N)NC(=O)[C@@H]2CSSC[C@@H]3NC(=O)[C@H](CO)NC(=O)[C@H]([C@@H](C)O)NC(=O)[C@@H]4CCCN4C(=O)[C@H](C)NC(=O)[C@H](Cc4c[nH]c5ccccc45)NC(=O)[C@H](CC(=O)O)NC(=O)CNC(=O)[C@H](CCCNC(=N)N)NC(=O)CNC(=O)[C@H](CCC(N)=O)NC(=O)[C@@H]4CCCN4C(=O)[C@@H](NC(=O)CNC(=O)C(C)F)CSSC[C@H](NC(=O)CNC(=O)[C@H](C)NC(=O)[C@H](CC(C)C)NC(=O)[C@H](CSSC[C@@H](C(=O)NCC(N)=O)NC(=O)[C@H]([C@@H](C)O)NC(=O)[C@H](CCCNC(=N)N)NC(=O)[C@@H]4CCCN4C1=O)NC(=O)[C@H](CC(=O)O)NC(=O)[C@H](CO)NC(=O)[C@H](CC(=O)O)NC(=O)[C@H](CCC(N)=O)NC(=O)[C@H](CO)NC3=O)C(=O)N[C@@H](C(C)C)C(=O)N2 (stereo partly drawn) [fluorine-18 labelled]			nude mice U-87 MG xenograft, tumor	intravenous, 2.5 h		tissue uptake	1.02 ± 0.19 %ID/g
CCCCCc1cc(O)c2c(c1)OC(C)(C)[C@@H]1CCC(C)=C[C@@H]21		drug discrimination	C57BL/6J mice, female	intraperitoneal, first dose-effect curve		ED50	1.76 mg/kg
Cc1ccncc1OC(=O)NCCCCCn1ccc2ccc(F)cc21			porcine liver S9 fraction	20 µM, 30 min, together with: BNPP 1 mM		inhibition of degradation	45%
Oc1c(Cl)cc(Cl)c(Cl)c1Cc1c(O)c(Cl)cc(Cl)c1Cl			C57BL/6 mouse, plasma	intravenous, 10 mg/kg, single dose		half-life	4.4 h
CCCCCOc1ccc(-c2ccc(-c3ccc(C(=O)N[C@H]4C[C@@H](O)[C@@H](O)NC(=O)[C@@H]5[C@@H](O)[C@@H](C)CN5C(=O)[C@H]([C@@H](C)O)NC(=O)[C@H]([C@H](O)[C@@H](O)c5ccc(O)cc5)NC(=O)[C@@H]5C[C@@H](O)CN5C(=O)[C@H]([C@@H](C)O)NC4=O)cc3)cc2)cc1			patients aged sample A to <sample B years, plasma	intravenous, loading 200 then 100 mg daily		AUC(0-24) steady state median	75800 ng·h/mL
Cc1sc2c(c1C)C(c1ccc(Cl)cc1)=N[C@@H](CC(=O)OC(C)(C)C)c1nnc(C)n1-2		LC-MS	Ringer's solution with 10% β-cyclodextrin	50 ng/mL, time not given, glass vessel, plastic vial		recovery vs nominal	86.2% and 86.4%
CCCCCOc1ccc(-c2cc(-c3ccc(C(=O)N[C@H]4C[C@@H](O)[C@@H](O)NC(=O)[C@@H]5[C@@H](O)[C@@H](C)CN5C(=O)[C@H]([C@H](O)CC(N)=O)NC(=O)[C@H]([C@H](O)[C@@H](O)c5ccc(O)c(OS(=O)(=O)O)c5)NC(=O)[C@@H]5C[C@@H](O)CN5C(=O)[C@H]([C@@H](C)O)NC4=O)cc3)no2)cc1			infants on ECMO, plasma	intravenous, 4 mg/kg every 24 h, 72 to 96 h		AUC	117000 ng·h/mL
CCCCCCCC[N+](C)(C)C		substrate depletion	human liver microsomes	0.5 µM, 0 to 3 h, 37 °C, together with: NADPH		intrinsic clearance	0.144 mL/h/mg protein
FFPKVAGVAAKVLKKFCTISKKC (disulfide 17-23 (inferred)) (disulfide)		haemolysis	horse erythrocytes	2 h, 37 °C		HC10	> 128 µM
CN1CC[C@]23c4c5ccc(O)c4O[C@H]2[C@@H](O[C@@H]2O[C@H](C(=O)O)[C@@H](O)[C@H](O)[C@H]2O)C=C[C@H]3[C@H]1C5	MDCK II			10.0 µg/mL, 100 min, Hanks buffer		Papp	3.06 ± 0.16 ×10⁻⁶ cm/s
C[C@H]1CNCCc2ccc(Cl)cc21			male Sprague-Dawley rat, plasma	subcutaneous, pimavanserin 0.5 + lorcaserin 0.5 mg/kg, pimavanserin 15 min earlier		CL/F	298 ± 21.5 mL/min/kg
CS(=O)(=O)CCCn1c(Cn2c(=O)n(CC(F)(F)F)c3ccncc32)cc2cc(Cl)ccc21			RSV-infected infants	concentration not given, all dose cohorts		patients with high MCH	3%
CNC(C)Cc1ccc2c(c1)OCO2 (racemic)		visual analog scale, item: Friendly	human	oral, 0.75 mg/kg, mean over session, unit not given	reference: pre-dose baseline	mood rating	5
COc1ccc(-c2cc(=O)c3c(OC)c(OC)c(OC)cc3o2)cc1			C57BL/6 mouse, male, plasma	oral, 1% w/w in diet, 6 weeks, orange peel extract diet	reference: content in orange peel	tissue to peel content ratio	0.046%
CC(C)c1nc(CN(C)C(=O)N[C@H](C(=O)N[C@@H](Cc2ccccc2)C[C@H](O)[C@H](Cc2ccccc2)NC(=O)OCc2cncs2)C(C)C)cs1			healthy human volunteers, plasma	oral, dose not given, together with: pravastatin plus 2D regimen		AUC(0-24)	5380 ng·h/mL
CCCCCOc1ccc(-c2cc(-c3ccc(C(=O)N[C@H]4C[C@@H](O)[C@@H](O)NC(=O)[C@@H]5[C@@H](O)[C@@H](C)CN5C(=O)[C@H]([C@H](O)CC(N)=O)NC(=O)[C@H]([C@H](O)[C@@H](O)c5ccc(O)c(OS(=O)(=O)O)c5)NC(=O)[C@@H]5C[C@@H](O)CN5C(=O)[C@H]([C@@H](C)O)NC4=O)cc3)no2)cc1			human severe hepatic dysfunction	intravenous, 100 mg single dose		tolerability	not toxic
O=C(O)c1ccc2c(c1)C(=O)OC21c2ccc(O)cc2Oc2cc(O)ccc21			excised Sprague-Dawley rat skin	50 µM, 0 to 5 h, 37 °C, 0.5% DMSO		Papp	0.0342 ×10⁻⁶ cm/s
CCCCCOc1ccc(-c2cc(-c3ccc(C(=O)N[C@H]4C[C@@H](O)[C@@H](O)NC(=O)[C@@H]5[C@@H](O)[C@@H](C)CN5C(=O)[C@H]([C@H](O)CC(N)=O)NC(=O)[C@H]([C@H](O)[C@@H](O)c5ccc(O)c(OS(=O)(=O)O)c5)NC(=O)[C@@H]5C[C@@H](O)CN5C(=O)[C@H]([C@@H](C)O)NC4=O)cc3)no2)cc1			human paediatric patients 2 to 5 years, plasma	intravenous, 4.5 mg/kg once daily, day 7, geometric mean		AUC(0-tau)	238000 ng·h/mL
CC1(C)S[C@@H]2[C@H](NC(=O)[C@@H](C(=O)O)c3ccsc3)C(=O)N2[C@H]1C(=O)O			rat plasma	2400 ng/mL, -20 °C to room temperature, three freeze-thaw cycles		measured concentration	2344 ± 16 ng/mL
CN1CCC(Nc2ncc3ncnc(Nc4ccc(F)c(Cl)c4)c3n2)CC1			Sprague-Dawley rat, male, liver S9 without NADPH	1 µM, pH 7.4		intrinsic clearance	19 ± 3.17 mL/min/kg
CN[C@@](C)(C[18F])C(=O)O			mouse, muscle	2 h, tumour-bearing		tracer uptake	1.4 %ID/g

Excerpt of the above:
Molecule	tested on	assay	test system	setting	scale	endpoint	value
Cc1sc2c(c1C)C(c1ccc(Cl)cc1)=N[C@@H](CC(=O)OC(C)(C)C)c1nnc(C)n1-2		LC-MS	Ringer's solution with 10% β-cyclodextrin	50 ng/mL, time not given, glass vessel, plastic vial		recovery vs nominal	86.2% and 86.4%
CCCCCOc1ccc(-c2cc(-c3ccc(C(=O)N[C@H]4C[C@@H](O)[C@@H](O)NC(=O)[C@@H]5[C@@H](O)[C@@H](C)CN5C(=O)[C@H]([C@H](O)CC(N)=O)NC(=O)[C@H]([C@H](O)[C@@H](O)c5ccc(O)c(OS(=O)(=O)O)c5)NC(=O)[C@@H]5C[C@@H](O)CN5C(=O)[C@H]([C@@H](C)O)NC4=O)cc3)no2)cc1			infants on ECMO, plasma	intravenous, 4 mg/kg every 24 h, 72 to 96 h		AUC	117000 ng·h/mL
